Assay results pooled from the literature.
Protocols differ between the studies behind these lines. ± marks the error that the study gave.
ABL2 SH2 domain: Tyrosine-protein kinase ABL2, SH2 domain (ABL2, Homo sapiens, UniProt P42684)
UniProt P42684, sequence (whole entry, looked up): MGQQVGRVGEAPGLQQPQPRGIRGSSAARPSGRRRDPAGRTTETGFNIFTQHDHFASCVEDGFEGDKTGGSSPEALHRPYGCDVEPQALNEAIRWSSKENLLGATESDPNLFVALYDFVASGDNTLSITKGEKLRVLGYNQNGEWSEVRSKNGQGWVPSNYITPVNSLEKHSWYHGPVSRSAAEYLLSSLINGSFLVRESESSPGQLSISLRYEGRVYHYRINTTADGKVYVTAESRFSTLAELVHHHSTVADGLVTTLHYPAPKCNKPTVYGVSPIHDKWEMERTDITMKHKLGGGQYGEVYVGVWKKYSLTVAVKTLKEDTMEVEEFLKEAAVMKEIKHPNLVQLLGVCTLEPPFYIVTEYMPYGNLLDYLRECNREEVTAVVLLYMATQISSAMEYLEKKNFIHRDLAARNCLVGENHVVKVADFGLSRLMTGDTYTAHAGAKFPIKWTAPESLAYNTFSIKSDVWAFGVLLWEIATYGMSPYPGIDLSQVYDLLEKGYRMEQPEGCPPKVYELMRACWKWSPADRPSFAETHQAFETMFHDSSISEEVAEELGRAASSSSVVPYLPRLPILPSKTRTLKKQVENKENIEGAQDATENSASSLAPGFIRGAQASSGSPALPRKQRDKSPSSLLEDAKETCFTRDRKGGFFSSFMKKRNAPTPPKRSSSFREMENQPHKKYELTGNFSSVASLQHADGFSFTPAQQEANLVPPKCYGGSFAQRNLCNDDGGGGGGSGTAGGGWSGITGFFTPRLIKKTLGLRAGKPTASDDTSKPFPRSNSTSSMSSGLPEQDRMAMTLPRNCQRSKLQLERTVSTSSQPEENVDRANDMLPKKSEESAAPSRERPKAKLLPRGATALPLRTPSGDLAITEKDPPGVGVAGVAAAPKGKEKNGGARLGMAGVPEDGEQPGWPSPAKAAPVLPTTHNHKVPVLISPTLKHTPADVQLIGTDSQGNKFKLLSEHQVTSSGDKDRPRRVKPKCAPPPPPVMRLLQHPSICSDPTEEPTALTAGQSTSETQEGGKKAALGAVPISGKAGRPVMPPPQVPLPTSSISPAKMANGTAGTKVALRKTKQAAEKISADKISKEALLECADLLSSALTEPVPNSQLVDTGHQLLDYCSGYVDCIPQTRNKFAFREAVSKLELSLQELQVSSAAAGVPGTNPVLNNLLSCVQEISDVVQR
SYK SH2 domains: Tyrosine-protein kinase SYK, SH2 domains (SYK, Homo sapiens, UniProt P43405)
UniProt P02786, sequence (whole entry, looked up): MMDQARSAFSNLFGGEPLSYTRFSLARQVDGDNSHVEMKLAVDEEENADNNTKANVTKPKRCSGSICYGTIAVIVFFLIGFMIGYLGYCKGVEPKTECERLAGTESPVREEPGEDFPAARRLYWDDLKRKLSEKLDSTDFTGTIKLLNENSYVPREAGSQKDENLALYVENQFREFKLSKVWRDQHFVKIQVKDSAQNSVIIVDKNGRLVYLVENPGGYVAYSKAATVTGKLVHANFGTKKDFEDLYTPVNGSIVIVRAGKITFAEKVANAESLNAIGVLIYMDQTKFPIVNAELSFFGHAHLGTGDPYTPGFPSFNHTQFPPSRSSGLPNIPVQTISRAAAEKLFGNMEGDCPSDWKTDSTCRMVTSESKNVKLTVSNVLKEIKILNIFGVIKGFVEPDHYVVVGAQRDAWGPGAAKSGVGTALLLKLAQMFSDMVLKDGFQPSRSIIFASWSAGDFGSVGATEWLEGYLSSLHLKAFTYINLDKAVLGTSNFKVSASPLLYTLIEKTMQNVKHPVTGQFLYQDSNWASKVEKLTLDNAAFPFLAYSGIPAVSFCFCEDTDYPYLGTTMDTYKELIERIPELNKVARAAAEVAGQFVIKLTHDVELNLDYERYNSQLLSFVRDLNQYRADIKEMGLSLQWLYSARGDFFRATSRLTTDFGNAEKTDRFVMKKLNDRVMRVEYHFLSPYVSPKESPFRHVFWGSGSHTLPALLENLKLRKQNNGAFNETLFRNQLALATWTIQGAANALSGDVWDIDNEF
UniProt P94556, sequence (whole entry, unmodified, looked up): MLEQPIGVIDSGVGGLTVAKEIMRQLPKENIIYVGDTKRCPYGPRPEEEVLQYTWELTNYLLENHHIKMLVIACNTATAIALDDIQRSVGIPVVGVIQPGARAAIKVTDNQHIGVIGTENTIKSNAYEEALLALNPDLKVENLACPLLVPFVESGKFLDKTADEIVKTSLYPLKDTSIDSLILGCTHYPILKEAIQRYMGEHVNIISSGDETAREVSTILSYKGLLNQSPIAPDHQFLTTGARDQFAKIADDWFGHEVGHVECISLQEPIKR
UniProt Q16620, sequence (whole entry, looked up): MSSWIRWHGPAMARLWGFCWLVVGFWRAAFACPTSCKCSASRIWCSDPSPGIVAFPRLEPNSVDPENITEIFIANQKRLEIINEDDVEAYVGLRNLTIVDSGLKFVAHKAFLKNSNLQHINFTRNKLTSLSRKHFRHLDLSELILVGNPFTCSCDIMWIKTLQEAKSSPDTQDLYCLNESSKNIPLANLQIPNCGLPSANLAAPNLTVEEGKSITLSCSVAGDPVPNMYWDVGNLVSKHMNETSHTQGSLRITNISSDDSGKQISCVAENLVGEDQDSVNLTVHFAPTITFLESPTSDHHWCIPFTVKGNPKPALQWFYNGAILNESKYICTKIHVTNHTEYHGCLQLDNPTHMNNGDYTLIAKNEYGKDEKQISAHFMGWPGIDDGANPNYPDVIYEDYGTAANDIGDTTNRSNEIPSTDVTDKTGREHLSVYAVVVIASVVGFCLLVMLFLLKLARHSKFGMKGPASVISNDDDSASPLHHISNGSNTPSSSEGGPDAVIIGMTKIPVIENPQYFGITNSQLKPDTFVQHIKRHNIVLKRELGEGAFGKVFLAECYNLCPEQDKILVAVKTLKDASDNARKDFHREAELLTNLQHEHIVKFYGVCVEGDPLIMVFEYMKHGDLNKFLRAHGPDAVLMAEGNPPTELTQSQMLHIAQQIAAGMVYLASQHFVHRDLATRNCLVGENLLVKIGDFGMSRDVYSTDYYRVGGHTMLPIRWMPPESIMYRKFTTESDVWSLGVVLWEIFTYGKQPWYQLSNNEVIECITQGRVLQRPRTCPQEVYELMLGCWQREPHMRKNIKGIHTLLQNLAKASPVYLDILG
UniProt P05046, sequence (whole entry, looked up): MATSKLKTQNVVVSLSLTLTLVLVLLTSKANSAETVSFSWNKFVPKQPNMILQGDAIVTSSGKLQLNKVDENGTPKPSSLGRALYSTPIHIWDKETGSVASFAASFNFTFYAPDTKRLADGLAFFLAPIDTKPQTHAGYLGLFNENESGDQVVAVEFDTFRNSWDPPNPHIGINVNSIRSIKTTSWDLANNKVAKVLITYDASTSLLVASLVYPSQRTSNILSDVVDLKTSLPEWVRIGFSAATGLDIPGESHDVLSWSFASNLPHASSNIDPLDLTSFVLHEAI
UniProt Q7Z569, sequence (whole entry, looked up): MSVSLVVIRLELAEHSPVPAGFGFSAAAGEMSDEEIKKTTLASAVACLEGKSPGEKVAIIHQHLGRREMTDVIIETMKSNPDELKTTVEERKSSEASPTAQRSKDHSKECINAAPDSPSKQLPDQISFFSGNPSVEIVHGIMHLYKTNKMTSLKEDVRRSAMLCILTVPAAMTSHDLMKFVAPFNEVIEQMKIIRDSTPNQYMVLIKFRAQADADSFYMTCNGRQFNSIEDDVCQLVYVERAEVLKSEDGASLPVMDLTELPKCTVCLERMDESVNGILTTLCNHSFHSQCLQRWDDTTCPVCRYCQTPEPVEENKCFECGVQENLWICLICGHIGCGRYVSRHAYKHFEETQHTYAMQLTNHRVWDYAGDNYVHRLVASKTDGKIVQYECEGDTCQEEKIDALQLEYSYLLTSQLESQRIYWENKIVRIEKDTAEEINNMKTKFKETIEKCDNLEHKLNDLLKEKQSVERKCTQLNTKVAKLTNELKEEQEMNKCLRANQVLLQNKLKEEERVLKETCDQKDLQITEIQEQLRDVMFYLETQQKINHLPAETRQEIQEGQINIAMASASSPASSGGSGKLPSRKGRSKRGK
UniProt Q9HCP0, sequence (whole entry, looked up): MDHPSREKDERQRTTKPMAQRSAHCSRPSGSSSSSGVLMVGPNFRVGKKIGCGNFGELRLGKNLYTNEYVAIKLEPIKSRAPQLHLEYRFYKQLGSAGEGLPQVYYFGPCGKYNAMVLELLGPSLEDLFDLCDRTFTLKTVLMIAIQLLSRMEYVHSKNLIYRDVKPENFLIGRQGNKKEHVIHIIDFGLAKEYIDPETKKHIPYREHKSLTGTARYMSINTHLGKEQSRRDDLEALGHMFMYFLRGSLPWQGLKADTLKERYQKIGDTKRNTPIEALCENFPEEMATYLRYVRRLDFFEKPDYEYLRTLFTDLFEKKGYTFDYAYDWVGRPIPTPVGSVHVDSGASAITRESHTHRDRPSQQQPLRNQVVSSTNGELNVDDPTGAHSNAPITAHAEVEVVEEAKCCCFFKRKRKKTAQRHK

CC[C@H](C)[C@H](NC(=O)[C@H](Cc1ccc(OP(=O)(O)O)cc1)NC(=O)[C@H](CCC(=O)O)NC(=O)[C@@H]1CCCN1C(=O)[C@@H](NC(=O)[C@@H]1CCCN1C(=O)[C@H](CC(C)C)NC(=O)[C@H](Cc1ccccc1)NC(=O)[C@@H](NC(=O)[C@H](CC(=O)O)NC(=O)[C@H](CC(=O)O)NC(=O)c1ccc2c(c1)C(=O)OC21c2ccc(N(C)C)cc2Oc2cc(N(C)C)ccc21)[C@@H](C)O)C(C)C)C(=O)N[C@@H](CC(N)=O)C(=O)N[C@@H](CCC(N)=O)C(=O)N[C@@H](CO)C(=O)N[C@H](C(=O)N1CCC[C@H]1C(=O)N[C@@H](CCCCN)C(=O)N[C@@H](CC(=O)O)C(=O)O)C(C)C — Kd (ABL2 SH2 domain; binding): 0.152 µM
CC[C@H](CO)Nc1nc(NCc2ccc(-c3ccccn3)cc2)c2ncn(C(C)C)c2n1 — Kd (CSNK1G1 (Homo sapiens, UniProt Q9HCP0); competition affinity chromatography; SH-SY5Y cell extract): 12.5 µM
CC(=O)N[C@H]1[C@@H](OC[C@H](NC(=O)[C@H](CO)NC(C)=O)C(=O)N[C@@H](CO)C(=O)NCC(=O)O)O[C@H](CO)[C@H](O)[C@@H]1O — Kd (Vicia villosa lectin; glycan microarray; 4 glycans per BSA): 0.044 ± 0.013 µM
CSCC[C@H](NC(=O)CNC(=O)[C@H](Cc1ccccc1)NC(=O)[C@H](CC(=O)O)NC(=O)CNC(=O)c1ccc2c(c1)C(=O)OC21c2ccc(N(C)C)cc2Oc2cc(N(C)C)ccc21)C(=O)N[C@@H](CO)C(=O)N[C@@H](CCCNC(=N)N)C(=O)N[C@@H](CC(=O)O)C(=O)N[C@H](C(=O)N[C@@H](Cc1ccc(OP(=O)(O)O)cc1)C(=O)N[C@@H](CO)C(=O)N[C@H](C(=O)N[C@@H](CC(=O)O)C(=O)N[C@@H](Cc1ccc(O)cc1)C(=O)N[C@@H](Cc1ccc(O)cc1)C(=O)N[C@@H](CCCNC(=N)N)C(=O)N[C@H](C(=O)N[C@@H](CC(=O)O)C(=O)O)C(C)C)[C@@H](C)O)C(C)C — Kd (SYK SH2 domains; binding): 0.547 µM
C/C1=C\[C@H](C)C[C@H](C)OC(=O)C[C@H](c2ccc(O)cc2)NC(=O)[C@@H](Cc2c(Br)[nH]c3ccccc23)N(C)C(=O)[C@H](C)NC(=O)[C@@H](C)C1 — Kd (bovine cardiac reconstituted thin filament; binding, isothermal titration calorimetry): 0.5 µM
N=C(N)NCCC[C@H](N)C(=O)O — Kd (uncharacterized protein (Pelagibacter ubique, UniProt Q4FLC2); isothermal titration calorimetry; Candidatus Pelagibacter ubique; displacement titration, with: octopine competitor 250 µM): 1.75e-05 µM
CCCC(=O)CC(=O)N[C@H]1CCOC1=O — Kd (qscR, DNA-bound dimer (Pseudomonas aeruginosa, UniProt G3XD77); ligand binding, FRET displacement; protein with DNA): 0.0377 µM
CCCCc1oc2ccccc2c1C(=O)c1cc(I)c(OCCN(CC)CC)c(I)c1 — Kd (KCNH1 (Homo sapiens, UniProt O95259); potassium current, inhibitor, whole-cell patch clamp; HEK293 stably expressing): 0.27 ± 0.02 µM
CC(=O)N[C@H]1[C@@H](O[C@H](C)[C@H](NC(C)=O)C(=O)N[C@H](C(=O)N[C@H](C(=O)NCC(=O)O)[C@@H](C)O[C@H]2O[C@H](CO)[C@H](O)[C@H](O)[C@H]2NC(C)=O)[C@@H](C)O[C@H]2O[C@H](CO)[C@H](O)[C@H](O)[C@H]2NC(C)=O)O[C@H](CO)[C@H](O)[C@@H]1O — Kd (LE1 (Glycine max, UniProt P05046); glycan microarray; 20 glycans per BSA): 0.001 ± 0.0001 µM
C[C@H](O)[C@H](O)c1cnc2[nH]c(N)nc(=O)c2n1 — Kd (Phenylalanine-4-hydroxylase (phhA, Chromobacterium violaceum, UniProt P30967)): 55.2 ± 11.9 µM
CC(C)C[C@H](NC(=O)CNC(=O)[C@@H](NC(=O)[C@@H](NC(=O)[C@H](CCC(N)=O)NC(=O)[C@H](CCC(N)=O)NC(=O)[C@H](CCCNC(=N)N)NC(=O)[C@H](CCCCN)NC(=O)[C@@H](NC(=O)CNC(=O)[C@H](CCCCN)NC(=O)CNC(=O)[C@H](Cc1c[nH]cn1)NC(=O)[C@H](CC(C)C)NC(=O)[C@H](CC(C)C)NC(=O)[C@H](Cc1c[nH]cn1)NC(=O)[C@H](Cc1c[nH]cn1)NC(=O)[C@H](CC(C)C)NC(=O)[C@H](CC(C)C)NC(=O)[C@H](Cc1c[nH]cn1)NC(=O)[C@H](Cc1c[nH]c2ccccc12)NC(=O)[C@H](CC(C)C)NC(=O)[C@H](CC(C)C)NC(=O)CNC(=O)[C@@H](NC(=O)[C@@H](NC(=O)[C@H](CCC(N)=O)NC(=O)[C@H](CCC(N)=O)NC(=O)[C@H](CCCNC(=N)N)NC(=O)[C@H](CCCCN)NC(=O)[C@@H](N)[C@@H](C)O)C(C)C)C(C)C)[C@@H](C)O)C(C)C)C(C)C)C(=O)N[C@@H](CC(C)C)C(=O)N[C@@H](Cc1c[nH]c2ccccc12)C(=O)N[C@@H](Cc1c[nH]cn1)C(=O)N[C@@H](CC(C)C)C(=O)N[C@@H](CC(C)C)C(=O)N[C@@H](Cc1c[nH]cn1)C(=O)N[C@@H](Cc1c[nH]cn1)C(=O)N[C@@H](CC(C)C)C(=O)N[C@@H](CC(C)C)C(=O)N[C@@H](Cc1c[nH]cn1)C(=O)O — Kd (Col1a1/Col1a2 (Rattus norvegicus, UniProt P02454+P02466); ITC; pH 7.4, 25 °C, with: collagen 10 µM): 0.352 µM
O=C(O)CCCN1CC=C(c2ccccc2)CC1 — Kd (BRCA1-associated protein, ZnF-UBD domain (BRAP, Homo sapiens, UniProt Q7Z569)): > 1000 µM
CCCCCCCCCC(=O)CC(=O)N[C@H]1CCOC1=O — Kd (qscR, ligand-binding domain (Pseudomonas aeruginosa, UniProt G3XD77); ligand binding, FRET displacement; ligand-binding domain): 0.000724 µM
CC[C@H](C)[C@H](NC(=O)CNC(=O)[C@H](CC(=O)O)NC(=O)[C@H](Cc1ccc(OP(=O)(O)O)cc1)NC(=O)[C@@H]1CCCN1C(=O)[C@H](CCCCN)NC(=O)[C@H](CO)NC(=O)CNC(=O)[C@H](Cc1ccccc1)NC(=O)[C@@H](NC(=O)[C@H](CCSC)NC(=O)[C@H](CC(C)C)NC(=O)[C@H](CCC(=O)O)NC(=O)c1ccc2c(c1)C(=O)OC21c2ccc(N(C)C)cc2Oc2cc(N(C)C)ccc21)[C@@H](C)O)C(=O)N1CCC[C@H]1C(=O)N[C@@H](C)C(=O)N[C@@H](CO)C(=O)N[C@@H](CCC(=O)O)C(=O)N[C@@H](CC(=O)O)C(=O)O — Kd (SYK SH2 domains; binding): 1.55 µM
CC(=O)N[C@H]1[C@@H](OC[C@H]2O[C@@H](O)[C@H](O)[C@@H](O)[C@H]2O)O[C@H](CO)[C@H](O)[C@@H]1O — Kd (Helix pomatia agglutinin; glycan microarray; 4 glycans per BSA): 0.011 ± 0.003 µM
N[C@H](CCC(=O)O)C(=O)O — Kd (racE (Bacillus subtilis, UniProt P94556, C74A)): 106 µM
Nc1ncnc2c1ncn2[C@@H]1O[C@H](CO)[C@@H](OP(=O)(O)O)[C@H]1O — Kd (Thermonuclease, denatured (nuc, Staphylococcus aureus, UniProt P00644); binding; pH 7): 30000 µM
CC[C@H](C)[C@H](NC(=O)[C@H](CC(=O)O)NC(=O)[C@H](C)NC(=O)[C@H](Cc1ccc(O)cc1)NC(=O)[C@H](CCCCN)NC(=O)c1ccc2c(c1)C(=O)OC21c2ccc(N(C)C)cc2Oc2cc(N(C)C)ccc21)C(=O)N[C@@H](CCC(=O)O)C(=O)N[C@@H](CO)C(=O)N[C@@H](CO)C(=O)N[C@@H](CC(N)=O)C(=O)N[C@@H](Cc1ccc(OP(=O)(O)O)cc1)C(=O)N[C@@H](CCSC)C(=O)N[C@@H](C)C(=O)N1CCC[C@H]1C(=O)N[C@@H](Cc1ccc(O)cc1)C(=O)N[C@@H](CC(=O)O)C(=O)N[C@@H](CC(N)=O)C(=O)N[C@@H](Cc1ccc(O)cc1)C(=O)N[C@@H](CC(=O)O)C(=O)O — Kd (ABL2 SH2 domain; binding): 0.014 µM
O=c1cc(-c2ccccc2)oc2c(O)c(O)ccc12 — Kd (NTRK2 (Homo sapiens, UniProt Q16620); binding, tryptophan fluorescence quenching; extracellular domain): 0.0146 ± 0.0068 µM
CC(C)C[C@H](NC(=O)[C@H](Cc1ccc(OP(=O)(O)O)cc1)NC(=O)[C@H](CCC(=O)O)NC(=O)[C@@H]1CCCN1C(=O)[C@H](CC(N)=O)NC(=O)CNC(=O)[C@@H](NC(=O)[C@H](C)NC(=O)[C@@H](NC(=O)[C@H](CO)NC(=O)[C@H](Cc1c[nH]cn1)NC(=O)c1ccc2c(c1)C(=O)OC21c2ccc(N(C)C)cc2Oc2cc(N(C)C)ccc21)[C@@H](C)O)C(C)C)C(=O)N[C@@H](CC(N)=O)C(=O)N[C@H](C(=O)N[C@H](C(=O)N[C@@H](CCC(N)=O)C(=O)N1CCC[C@H]1C(=O)N[C@H](C(=O)N[C@@H](CC(=O)O)C(=O)O)[C@@H](C)O)C(C)C)[C@@H](C)O — Kd (ABL2 SH2 domain; binding): 0.12 µM
CC[C@@H](C)[C@@H](NC(=O)[C@@H](Cc1ccc(O)cc1)NC(=O)[C@H]1CCCN1C(=O)[C@@H](CCCNC(=N)N)NC(=O)[C@H](N)Cc1c[nH]cn1)C(=O)N[C@H](C)C(=O)N[C@H](Cc1c[nH]cn1)C(=O)N[C@H](CCCNC(=N)N)C(=O)N[C@H](CCCCNC(=O)c1cccc(S(=O)(=O)F)c1)C(=O)N[C@H](Cc1ccc(O)cc1)C(=O)N[C@H](CO)C(=O)N[C@H](Cc1ccccc1)C(N)=O — Kd (TFRC (Homo sapiens, UniProt P02786); microscale thermophoresis; 6 h, OFP-tagged protein): 15.7 ± 0.6 µM
